Experimental data collected from several papers.
Each numbered part is a random draw from the data of one study; scales do not carry over between parts. Values joined by “and” are separate records of one study, mostly repeats; a detail may differ.
Sequence of UniProt Q9H4B4 (whole entry, looked up): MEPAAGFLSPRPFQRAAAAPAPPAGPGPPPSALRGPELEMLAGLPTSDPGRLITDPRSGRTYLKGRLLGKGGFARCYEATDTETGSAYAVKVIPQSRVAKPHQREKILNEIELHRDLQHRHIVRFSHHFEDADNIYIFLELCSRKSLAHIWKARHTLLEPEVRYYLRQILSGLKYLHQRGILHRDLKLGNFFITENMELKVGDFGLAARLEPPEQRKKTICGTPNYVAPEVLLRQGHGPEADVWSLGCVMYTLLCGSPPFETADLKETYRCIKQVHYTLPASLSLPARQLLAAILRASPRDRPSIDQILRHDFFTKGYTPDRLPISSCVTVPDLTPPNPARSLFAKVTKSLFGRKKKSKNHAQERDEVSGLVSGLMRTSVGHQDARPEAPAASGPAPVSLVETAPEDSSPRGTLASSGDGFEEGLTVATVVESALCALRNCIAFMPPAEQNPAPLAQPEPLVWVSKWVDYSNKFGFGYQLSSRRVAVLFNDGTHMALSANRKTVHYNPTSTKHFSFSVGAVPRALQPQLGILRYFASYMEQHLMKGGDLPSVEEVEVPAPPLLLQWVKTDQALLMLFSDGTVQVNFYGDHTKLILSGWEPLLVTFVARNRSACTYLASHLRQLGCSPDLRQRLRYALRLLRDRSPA
Sequence of UniProt P49761 (whole entry, looked up): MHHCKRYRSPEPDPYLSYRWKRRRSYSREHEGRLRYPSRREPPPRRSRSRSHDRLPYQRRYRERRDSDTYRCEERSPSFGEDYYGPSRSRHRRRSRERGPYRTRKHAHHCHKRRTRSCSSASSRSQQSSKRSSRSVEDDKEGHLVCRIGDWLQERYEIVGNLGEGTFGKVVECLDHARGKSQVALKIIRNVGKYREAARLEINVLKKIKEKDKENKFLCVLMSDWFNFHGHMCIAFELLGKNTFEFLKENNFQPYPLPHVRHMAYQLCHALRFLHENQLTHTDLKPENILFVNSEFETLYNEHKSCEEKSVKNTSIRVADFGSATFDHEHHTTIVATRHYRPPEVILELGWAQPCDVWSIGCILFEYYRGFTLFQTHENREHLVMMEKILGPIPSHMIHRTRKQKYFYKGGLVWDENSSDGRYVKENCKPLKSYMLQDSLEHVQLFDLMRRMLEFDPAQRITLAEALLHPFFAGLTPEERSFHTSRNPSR
Sequence of UniProt O75676 (whole entry, looked up): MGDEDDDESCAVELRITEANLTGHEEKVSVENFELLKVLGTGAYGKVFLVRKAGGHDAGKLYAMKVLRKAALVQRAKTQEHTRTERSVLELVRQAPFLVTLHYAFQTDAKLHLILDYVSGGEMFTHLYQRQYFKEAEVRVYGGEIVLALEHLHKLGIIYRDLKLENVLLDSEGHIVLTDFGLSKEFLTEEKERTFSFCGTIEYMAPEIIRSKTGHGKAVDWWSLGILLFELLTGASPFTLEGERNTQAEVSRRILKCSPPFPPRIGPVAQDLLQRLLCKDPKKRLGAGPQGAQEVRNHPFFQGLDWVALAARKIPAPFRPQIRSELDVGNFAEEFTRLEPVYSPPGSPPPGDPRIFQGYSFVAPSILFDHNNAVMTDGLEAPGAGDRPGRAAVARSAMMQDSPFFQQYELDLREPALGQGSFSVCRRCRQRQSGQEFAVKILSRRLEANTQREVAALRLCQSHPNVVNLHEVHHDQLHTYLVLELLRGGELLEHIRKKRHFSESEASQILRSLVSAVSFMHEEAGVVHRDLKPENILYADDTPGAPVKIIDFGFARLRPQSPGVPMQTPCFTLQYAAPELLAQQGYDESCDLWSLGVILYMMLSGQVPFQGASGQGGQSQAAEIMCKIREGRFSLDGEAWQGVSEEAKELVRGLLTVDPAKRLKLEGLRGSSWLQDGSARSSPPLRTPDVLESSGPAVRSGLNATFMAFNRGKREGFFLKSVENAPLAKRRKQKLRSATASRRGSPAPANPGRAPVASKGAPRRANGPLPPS

Study 1 — read-out: enzyme activity; mode: inhibitor; tested at: 0.5 µM; relative to: control; measurement: remaining activity
Structure (SMILES): COC[C@H]1OC(=O)c2coc3c2[C@@]1(C)C1=C(C3=O)[C@@H]2CCC(=O)[C@@]2(C)C[C@H]1OC(C)=O
MINK1 (Homo sapiens, UniProt Q8N4C8): 91.2%
MAPK1 (Homo sapiens, UniProt P28482): 101%
PLK3 (Homo sapiens, UniProt Q9H4B4): 14.4%
CLK4 (Homo sapiens, UniProt Q9HAZ1): 85.4%
Cyclin-dependent kinase 1, with cyclin A (CDK1, Homo sapiens, UniProt P06493): 97%
DDR2 (Homo sapiens, UniProt Q16832): 95.7%
NEK3 (Homo sapiens, UniProt P51956): 97.9%
PAK3 (Homo sapiens, UniProt O75914): 91.4%
PNCK (Homo sapiens, UniProt Q6P2M8): 98.2%
MARK4 (Homo sapiens, UniProt Q96L34): 102%
CDC42BPB (Homo sapiens, UniProt Q9Y5S2): 112%
CLK3 (Homo sapiens, UniProt P49761): 97.5%
MET (Homo sapiens, UniProt P08581): 100%
RPS6KA4 (Homo sapiens, UniProt O75676): 96.7%
CAMK4 (Homo sapiens, UniProt Q16566): 98.5%

Study 2 — organism: Plasmodium berghei; mode: inhibitor; cells: Huh-7; strain: liver stage; tested at: 10 µM; time: 24 h; relative to: untreated control; measurement: infection rate
NCC1(CC(=O)O)CCCCC1: 121%
Nc1ccncc1: 102%
O=C1CC[C@@]2(O)[C@H]3Cc4ccc(O)c5c4[C@@]2(CCN3CC2CC2)[C@H]1O5: 118%
CNC(C)(C)Cc1ccccc1: 114%
Cl[C@H]1[C@H](Cl)[C@@H](Cl)[C@@H](Cl)[C@H](Cl)[C@H]1Cl: 88.8%
CC(C)[N+](C)(CCC(C(N)=O)(c1ccccc1)c1ccccc1)C(C)C: 110%

Study 3 — host: mouse; matrix: microsomes or S9; tested at: 2 µM; time: 0.5 h; measurement: remaining compound
COc1ccc2c(c1)C1(CCN(C(=O)c3ccc(C#N)cc3)C1)C(=O)N2 (stereo not shown): 45%
CC(C)NC(=O)c1cc(Cl)cc(Cl)c1NC(=O)c1cc(OCC(=O)C(C)(C)C)nn1-c1ncccc1Cl: 63.1%
Cc1cc(Br)c2[nH]cc(CCN)c2c1: 43.3%
Cn1nc(-c2cccc3c2CCNC3)c2c(Cl)cccc21: 70.4%
Cc1nn(C)c2ncnc(N3CCN4CCCC4C3)c12 (stereo not shown): 38.6%

Study 4 — mode: inhibitor; tested at: concentration not given; together with: without ssDNA; measurement: remaining activity
Target: DNA polymerase theta, helicase domain (POLQ, Homo sapiens, UniProt O75417)
Sequence of UniProt O75417 (whole entry, looked up): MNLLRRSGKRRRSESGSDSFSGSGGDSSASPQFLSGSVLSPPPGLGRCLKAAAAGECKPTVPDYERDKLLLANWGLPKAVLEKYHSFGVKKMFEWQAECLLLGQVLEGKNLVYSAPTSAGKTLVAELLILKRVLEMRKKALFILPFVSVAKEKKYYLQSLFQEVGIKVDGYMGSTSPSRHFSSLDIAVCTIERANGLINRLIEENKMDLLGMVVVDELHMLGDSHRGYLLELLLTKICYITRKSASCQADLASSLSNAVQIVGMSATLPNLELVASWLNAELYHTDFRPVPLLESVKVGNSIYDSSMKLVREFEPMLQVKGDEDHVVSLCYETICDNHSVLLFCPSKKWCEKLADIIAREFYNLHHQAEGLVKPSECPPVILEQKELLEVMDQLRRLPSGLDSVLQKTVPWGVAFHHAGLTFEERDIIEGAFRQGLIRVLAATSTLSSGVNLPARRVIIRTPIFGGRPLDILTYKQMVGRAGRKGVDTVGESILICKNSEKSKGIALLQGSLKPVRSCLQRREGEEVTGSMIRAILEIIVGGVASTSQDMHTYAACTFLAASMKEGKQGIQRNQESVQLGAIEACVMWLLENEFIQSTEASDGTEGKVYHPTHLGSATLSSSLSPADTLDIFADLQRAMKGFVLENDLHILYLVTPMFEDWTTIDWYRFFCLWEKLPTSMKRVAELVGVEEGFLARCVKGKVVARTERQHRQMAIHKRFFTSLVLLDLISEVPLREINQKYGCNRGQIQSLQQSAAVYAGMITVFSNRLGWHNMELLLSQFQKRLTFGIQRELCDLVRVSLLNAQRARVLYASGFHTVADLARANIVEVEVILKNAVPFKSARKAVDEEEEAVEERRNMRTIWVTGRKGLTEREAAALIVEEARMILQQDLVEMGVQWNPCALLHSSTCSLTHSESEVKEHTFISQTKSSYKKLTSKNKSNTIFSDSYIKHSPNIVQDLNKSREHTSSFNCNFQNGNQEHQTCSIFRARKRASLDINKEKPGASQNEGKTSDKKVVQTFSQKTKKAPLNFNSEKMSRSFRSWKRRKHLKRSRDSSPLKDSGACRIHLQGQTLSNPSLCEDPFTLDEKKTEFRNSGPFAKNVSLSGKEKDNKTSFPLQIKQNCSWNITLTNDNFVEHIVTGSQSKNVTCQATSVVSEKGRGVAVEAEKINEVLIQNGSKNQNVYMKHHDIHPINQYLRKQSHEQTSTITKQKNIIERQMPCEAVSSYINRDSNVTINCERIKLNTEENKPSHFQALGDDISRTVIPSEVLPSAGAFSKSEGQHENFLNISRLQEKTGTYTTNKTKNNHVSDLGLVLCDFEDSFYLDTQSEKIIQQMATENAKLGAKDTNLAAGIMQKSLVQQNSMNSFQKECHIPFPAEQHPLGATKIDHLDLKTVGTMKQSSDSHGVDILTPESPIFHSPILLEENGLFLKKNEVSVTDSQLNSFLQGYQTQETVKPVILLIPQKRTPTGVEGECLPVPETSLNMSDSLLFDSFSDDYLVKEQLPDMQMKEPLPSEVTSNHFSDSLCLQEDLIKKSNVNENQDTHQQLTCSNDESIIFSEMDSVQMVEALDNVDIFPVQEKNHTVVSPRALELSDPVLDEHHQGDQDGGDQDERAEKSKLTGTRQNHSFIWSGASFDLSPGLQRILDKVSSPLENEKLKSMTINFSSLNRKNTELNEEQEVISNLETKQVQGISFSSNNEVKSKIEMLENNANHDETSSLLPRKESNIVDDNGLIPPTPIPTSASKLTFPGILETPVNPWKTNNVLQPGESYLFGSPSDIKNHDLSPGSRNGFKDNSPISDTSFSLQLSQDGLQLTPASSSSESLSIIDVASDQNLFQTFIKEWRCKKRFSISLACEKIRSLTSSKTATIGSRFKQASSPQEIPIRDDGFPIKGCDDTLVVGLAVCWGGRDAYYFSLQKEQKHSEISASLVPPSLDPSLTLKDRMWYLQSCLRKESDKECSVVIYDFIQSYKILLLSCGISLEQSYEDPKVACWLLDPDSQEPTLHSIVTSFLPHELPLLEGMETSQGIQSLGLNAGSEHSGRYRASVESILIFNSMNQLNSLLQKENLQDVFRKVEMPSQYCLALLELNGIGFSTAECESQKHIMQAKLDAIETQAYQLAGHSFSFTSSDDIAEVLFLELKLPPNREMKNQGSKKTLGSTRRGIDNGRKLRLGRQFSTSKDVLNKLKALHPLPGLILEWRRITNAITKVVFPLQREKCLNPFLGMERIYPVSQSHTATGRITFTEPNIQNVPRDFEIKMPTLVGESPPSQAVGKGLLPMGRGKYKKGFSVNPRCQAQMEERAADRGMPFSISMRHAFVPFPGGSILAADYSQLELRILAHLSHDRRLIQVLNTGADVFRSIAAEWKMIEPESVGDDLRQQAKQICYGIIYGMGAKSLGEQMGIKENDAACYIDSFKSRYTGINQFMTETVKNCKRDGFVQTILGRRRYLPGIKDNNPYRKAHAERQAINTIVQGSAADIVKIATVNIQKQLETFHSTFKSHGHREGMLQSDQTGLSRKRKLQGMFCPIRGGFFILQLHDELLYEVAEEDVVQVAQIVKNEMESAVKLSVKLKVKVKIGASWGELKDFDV
COc1cc(C(c2c(O)c3ccccc3oc2=O)c2c(C)n(C)n(-c3ccccc3)c2=O)ccc1OCC(=O)O (stereo not shown): 75.9% and 78.2%
CN(N=O)c1ccc(O)c(O)c1: 95.6% and 94.1%
CSc1ccc(C(c2c(O)c3ccccc3oc2=O)c2c(C)n(C)n(-c3ccccc3)c2=O)cc1 (stereo not shown): 107% and 105%
CCN(CC)C(=O)c1ccc2c(c1)N(Cc1ccc(C(F)(F)F)cc1)C(=O)c1ccccc1S2: 28.9% and 31.6%

Other studies, line by line
pknB: Serine/threonine-protein kinase PknB (pknB, Mycobacterium tuberculosis, UniProt P9WI81)
Sequence of UniProt P9WI81 (whole entry, looked up): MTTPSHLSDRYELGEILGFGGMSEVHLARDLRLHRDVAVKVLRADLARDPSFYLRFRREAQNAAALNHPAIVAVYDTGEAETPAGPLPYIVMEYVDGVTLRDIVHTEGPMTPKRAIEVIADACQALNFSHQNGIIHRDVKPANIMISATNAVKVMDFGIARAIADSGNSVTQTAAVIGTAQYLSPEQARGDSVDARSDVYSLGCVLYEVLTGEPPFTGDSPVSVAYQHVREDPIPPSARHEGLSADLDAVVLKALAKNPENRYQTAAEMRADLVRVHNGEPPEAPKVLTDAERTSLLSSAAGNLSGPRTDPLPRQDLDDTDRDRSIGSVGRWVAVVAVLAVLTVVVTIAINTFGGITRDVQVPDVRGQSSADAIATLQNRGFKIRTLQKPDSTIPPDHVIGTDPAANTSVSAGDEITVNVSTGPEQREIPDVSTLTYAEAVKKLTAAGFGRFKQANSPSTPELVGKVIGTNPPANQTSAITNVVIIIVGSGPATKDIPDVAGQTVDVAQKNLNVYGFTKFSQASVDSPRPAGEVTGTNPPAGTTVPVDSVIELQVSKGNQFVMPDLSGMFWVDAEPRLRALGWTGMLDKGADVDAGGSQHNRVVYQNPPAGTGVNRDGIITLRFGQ
O=C(NC[C@@H]1[C@H]2CN(C(=O)OCc3cc(C(F)(F)F)cc(C(F)(F)F)c3)C[C@@H]12)c1ccc2[nH]nnc2c1  remaining binding (pknB; cell-free assay, competition with immobilised ligand; 1 µM): 80%
CNC(=O)c1cc(C(=O)NC2CC2)cn(Cc2ccccc2)c1=O  inhibition (ADRA1B (Homo sapiens, UniProt P35368); binding, radioligand binding; 10 µM): 7.27%
O=C(Nc1ccc(Oc2ccc(F)cc2)cc1)N1CCc2ncccc2[C@H]1c1ccc(F)cc1  remaining binding (pknB; cell-free assay, competition with immobilised ligand; 1 µM): 86%
CN(C)C(=O)Cn1cc(-c2nc([C@@](C)(c3ccc(-c4cnc(N)nc4)cc3)C3CC3)no2)cn1  remaining binding (CRK2 (Plasmodium falciparum, UniProt P61075); cell-free assay, competition with immobilised ligand; 1 µM): 0%

Repeated from above (study 1):
DDR2 (Homo sapiens, UniProt Q16832): 95.7%
NEK3 (Homo sapiens, UniProt P51956): 97.9%
PAK3 (Homo sapiens, UniProt O75914): 91.4%
